Published values from different studies.
Lines come from different studies, so protocols differ. ± gives the spread as reported.
Si: Sucrase-isomaltase, intestinal (Si, Rattus norvegicus, UniProt P23739)
Chain of UniProt P21554 (whole entry, unmodified, looked up): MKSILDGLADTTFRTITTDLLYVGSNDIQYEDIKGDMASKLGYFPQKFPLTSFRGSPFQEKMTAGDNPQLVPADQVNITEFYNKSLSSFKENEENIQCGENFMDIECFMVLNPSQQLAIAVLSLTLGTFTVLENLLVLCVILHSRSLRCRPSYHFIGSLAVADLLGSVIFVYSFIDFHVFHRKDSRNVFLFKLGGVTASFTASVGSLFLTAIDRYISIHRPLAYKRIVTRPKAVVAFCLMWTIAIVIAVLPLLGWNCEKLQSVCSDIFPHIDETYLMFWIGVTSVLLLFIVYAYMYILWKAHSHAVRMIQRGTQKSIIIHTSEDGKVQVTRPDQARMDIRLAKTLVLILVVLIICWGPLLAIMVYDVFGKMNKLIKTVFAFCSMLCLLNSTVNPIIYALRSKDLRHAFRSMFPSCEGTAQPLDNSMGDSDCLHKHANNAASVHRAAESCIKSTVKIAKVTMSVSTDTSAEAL
Chain of UniProt P23739 (whole entry, looked up): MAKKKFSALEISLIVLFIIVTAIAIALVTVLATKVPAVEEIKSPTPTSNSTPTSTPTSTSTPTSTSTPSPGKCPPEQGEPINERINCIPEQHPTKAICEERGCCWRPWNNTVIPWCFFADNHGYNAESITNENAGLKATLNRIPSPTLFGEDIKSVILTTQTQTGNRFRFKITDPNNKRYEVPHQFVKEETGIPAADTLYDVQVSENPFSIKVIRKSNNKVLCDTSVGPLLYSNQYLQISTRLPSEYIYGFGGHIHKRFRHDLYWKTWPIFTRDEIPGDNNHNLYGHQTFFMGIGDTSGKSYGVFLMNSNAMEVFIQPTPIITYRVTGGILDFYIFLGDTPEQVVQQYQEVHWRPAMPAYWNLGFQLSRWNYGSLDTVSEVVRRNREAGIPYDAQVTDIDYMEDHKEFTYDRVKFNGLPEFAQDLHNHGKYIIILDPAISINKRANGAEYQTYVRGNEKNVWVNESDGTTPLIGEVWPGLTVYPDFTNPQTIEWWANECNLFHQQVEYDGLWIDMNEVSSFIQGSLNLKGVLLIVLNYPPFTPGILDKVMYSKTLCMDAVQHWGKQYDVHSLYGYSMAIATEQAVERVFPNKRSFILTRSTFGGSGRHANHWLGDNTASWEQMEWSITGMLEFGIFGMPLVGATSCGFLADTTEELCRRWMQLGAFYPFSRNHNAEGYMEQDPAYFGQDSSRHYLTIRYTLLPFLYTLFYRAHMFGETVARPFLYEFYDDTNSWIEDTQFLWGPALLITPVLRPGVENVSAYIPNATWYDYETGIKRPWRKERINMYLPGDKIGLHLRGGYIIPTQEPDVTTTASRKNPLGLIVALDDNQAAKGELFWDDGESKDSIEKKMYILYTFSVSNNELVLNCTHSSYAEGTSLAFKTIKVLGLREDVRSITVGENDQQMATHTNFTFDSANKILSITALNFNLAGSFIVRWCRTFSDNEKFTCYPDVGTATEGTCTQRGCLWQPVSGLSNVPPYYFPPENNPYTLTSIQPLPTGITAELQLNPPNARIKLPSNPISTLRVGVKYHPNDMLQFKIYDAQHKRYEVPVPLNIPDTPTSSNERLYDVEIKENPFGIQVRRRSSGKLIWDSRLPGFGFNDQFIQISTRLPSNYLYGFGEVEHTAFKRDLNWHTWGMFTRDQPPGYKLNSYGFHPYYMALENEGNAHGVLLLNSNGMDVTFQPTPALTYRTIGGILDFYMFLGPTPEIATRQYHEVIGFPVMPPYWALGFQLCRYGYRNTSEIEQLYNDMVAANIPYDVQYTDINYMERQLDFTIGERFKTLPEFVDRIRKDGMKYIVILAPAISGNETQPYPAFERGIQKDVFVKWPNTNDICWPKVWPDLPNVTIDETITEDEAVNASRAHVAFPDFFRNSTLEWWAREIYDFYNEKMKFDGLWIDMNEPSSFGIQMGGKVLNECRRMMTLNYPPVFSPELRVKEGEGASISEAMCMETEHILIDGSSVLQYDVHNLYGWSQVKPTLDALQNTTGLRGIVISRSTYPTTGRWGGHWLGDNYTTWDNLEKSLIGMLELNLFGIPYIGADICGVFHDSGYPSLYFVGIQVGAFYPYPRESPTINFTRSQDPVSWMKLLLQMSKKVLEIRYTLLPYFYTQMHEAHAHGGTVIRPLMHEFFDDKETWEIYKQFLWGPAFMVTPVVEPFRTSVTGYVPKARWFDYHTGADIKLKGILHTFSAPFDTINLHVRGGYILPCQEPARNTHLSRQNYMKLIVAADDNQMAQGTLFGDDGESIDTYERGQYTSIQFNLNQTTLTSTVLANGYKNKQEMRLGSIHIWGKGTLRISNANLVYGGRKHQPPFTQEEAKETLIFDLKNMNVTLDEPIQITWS
Chain of UniProt O43613 (whole entry, looked up): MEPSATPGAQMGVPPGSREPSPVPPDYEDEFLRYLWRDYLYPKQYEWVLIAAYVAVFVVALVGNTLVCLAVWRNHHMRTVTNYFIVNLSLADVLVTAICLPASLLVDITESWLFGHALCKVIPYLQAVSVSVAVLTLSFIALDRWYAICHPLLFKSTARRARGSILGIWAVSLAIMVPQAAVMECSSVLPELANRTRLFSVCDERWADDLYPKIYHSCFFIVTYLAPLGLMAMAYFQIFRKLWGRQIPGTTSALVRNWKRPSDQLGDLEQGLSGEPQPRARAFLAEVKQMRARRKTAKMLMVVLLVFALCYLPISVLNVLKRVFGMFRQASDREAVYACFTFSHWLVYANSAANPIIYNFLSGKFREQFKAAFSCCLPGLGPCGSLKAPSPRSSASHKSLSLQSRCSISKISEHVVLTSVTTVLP
Chain of UniProt P35462 (whole entry, looked up): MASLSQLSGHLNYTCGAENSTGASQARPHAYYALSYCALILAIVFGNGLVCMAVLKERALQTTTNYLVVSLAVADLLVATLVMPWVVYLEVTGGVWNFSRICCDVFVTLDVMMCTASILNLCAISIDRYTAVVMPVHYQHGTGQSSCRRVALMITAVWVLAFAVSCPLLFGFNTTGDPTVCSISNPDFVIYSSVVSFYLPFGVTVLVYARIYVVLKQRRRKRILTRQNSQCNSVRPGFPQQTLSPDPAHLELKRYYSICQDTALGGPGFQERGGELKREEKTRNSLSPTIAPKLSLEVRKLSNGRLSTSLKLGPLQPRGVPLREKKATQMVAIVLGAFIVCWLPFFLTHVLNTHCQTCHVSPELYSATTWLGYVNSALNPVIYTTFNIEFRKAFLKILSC
Chain of UniProt O15264 (whole entry, looked up): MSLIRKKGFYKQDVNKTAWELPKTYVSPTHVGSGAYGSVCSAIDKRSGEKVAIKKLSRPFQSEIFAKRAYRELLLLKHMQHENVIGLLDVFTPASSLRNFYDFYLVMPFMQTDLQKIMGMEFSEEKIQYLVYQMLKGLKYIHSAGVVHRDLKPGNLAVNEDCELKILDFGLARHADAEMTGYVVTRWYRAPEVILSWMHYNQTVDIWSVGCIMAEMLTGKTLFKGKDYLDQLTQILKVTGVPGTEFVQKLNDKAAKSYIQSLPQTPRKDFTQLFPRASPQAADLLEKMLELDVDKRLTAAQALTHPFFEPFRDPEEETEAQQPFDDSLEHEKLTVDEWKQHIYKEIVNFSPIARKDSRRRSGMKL
Chain of UniProt P08588 (whole entry, looked up): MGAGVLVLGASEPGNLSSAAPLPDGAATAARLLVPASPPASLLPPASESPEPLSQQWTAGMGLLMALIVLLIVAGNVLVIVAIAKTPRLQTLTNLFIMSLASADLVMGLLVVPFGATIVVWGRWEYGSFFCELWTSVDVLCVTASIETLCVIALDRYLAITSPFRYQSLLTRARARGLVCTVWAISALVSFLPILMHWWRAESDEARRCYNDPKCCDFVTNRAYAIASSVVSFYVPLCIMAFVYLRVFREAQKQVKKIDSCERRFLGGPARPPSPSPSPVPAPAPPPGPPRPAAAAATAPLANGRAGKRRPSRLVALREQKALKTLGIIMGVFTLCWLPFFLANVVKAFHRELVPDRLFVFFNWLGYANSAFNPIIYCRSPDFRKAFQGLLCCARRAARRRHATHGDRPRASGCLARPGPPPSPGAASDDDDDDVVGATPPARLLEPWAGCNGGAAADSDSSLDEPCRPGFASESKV
Chain of UniProt P41587 (whole entry, looked up): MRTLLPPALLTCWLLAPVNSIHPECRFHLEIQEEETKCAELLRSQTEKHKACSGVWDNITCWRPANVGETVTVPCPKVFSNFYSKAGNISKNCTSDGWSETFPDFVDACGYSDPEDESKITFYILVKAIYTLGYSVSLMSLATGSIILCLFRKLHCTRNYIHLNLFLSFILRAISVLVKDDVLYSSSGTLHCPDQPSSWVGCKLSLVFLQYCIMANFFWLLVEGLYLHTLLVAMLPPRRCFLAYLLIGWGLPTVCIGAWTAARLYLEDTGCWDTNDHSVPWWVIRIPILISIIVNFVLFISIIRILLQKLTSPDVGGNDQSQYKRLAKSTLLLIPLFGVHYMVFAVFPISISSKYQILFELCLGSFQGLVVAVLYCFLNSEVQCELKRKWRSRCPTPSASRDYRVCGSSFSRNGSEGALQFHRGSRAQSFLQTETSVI
Chain of UniProt P41586 (whole entry, unmodified, looked up): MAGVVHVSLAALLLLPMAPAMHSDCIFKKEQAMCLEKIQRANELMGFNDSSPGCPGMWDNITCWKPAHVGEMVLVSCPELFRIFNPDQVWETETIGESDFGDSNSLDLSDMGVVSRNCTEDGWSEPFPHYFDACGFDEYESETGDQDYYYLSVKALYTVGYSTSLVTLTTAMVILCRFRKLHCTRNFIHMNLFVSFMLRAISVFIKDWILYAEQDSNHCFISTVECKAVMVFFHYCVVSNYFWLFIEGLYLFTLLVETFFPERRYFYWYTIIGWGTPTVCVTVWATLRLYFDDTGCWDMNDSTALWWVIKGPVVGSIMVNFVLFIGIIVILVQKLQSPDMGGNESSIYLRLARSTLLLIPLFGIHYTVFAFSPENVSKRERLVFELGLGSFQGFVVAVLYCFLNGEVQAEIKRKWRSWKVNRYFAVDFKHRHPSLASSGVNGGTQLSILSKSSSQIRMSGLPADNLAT

Cc1ccc2c(C(C[N+](=O)[O-])c3cccs3)c(-c3ccccc3)[nH]c2c1 (stereo not shown)  EC50 (CNR1 (Homo sapiens, UniProt P21554, S199A); β-arrestin recruitment, agonist, luciferase): 0.34 µM
CC(C)CC(C(=O)N1CC2(CC1C#N)C(=O)Nc1ccccc12)N(C)C(=O)c1cc2c(F)cc(F)c(F)c2[nH]1 (stereo not shown)  IC50 (Cathepsin E (CTSE, Homo sapiens, UniProt P14091); enzyme activity, inhibitor): > 100 µM
O=[N+]([O-])CC(c1ccco1)c1c(-c2ccccc2)[nH]c2ccccc12 (stereo not shown)  EC50 (CNR1 (Homo sapiens, UniProt P21554, F191A); G protein activation, agonist, BRET): > 1000 µM
COc1ccc(CN2CCN(Cc3ccccc3)CC2)c(O)c1  IC50 (Plasmodium falciparum; parasite growth, parasite lactate dehydrogenase; NF54): 6 µM
CS(C)(=O)=Nc1ccc(-c2ccc(-c3nc4cc(O[C@@H]5CO[C@H]6[C@@H]5OC[C@H]6O)[nH]c4cc3F)cc2)cc1  inhibition (MAPK13 (Homo sapiens, UniProt O15264); enzyme activity, inhibitor; 10 µM): 39%
CSCC[C@H](NC(=O)[C@H](CCC(N)=O)NC(=O)[C@H](CCCCN)NC(=O)[C@H](CCCNC(=N)N)NC(=O)[C@H](Cc1ccc(O)cc1)NC(=O)[C@H](CCCNC(=N)N)NC(=O)[C@H](CO)NC(=O)[C@H](Cc1ccc(O)cc1)NC(=O)[C@H](CO)NC(=O)[C@H](CC(=O)O)NC(=O)[C@@H](NC(=O)[C@@H](N)Cc1ccccc1)[C@@H](C)O)C(=O)N[C@@H](C)C(=O)N[C@H](C(=O)N[C@@H](CCCCN)C(=O)N[C@@H](CCCCn1cc(C[C@H](NC(=O)CNC(=O)[C@H](CO)NC(=O)[C@H](CCCNC(=N)N)NC(=O)[C@H](CO)NC(=O)[C@H](CC(C)C)NC(=O)[C@H](CC(C)C)NC(=O)CNC(=O)[C@H](C)NC(=O)[C@H](CC(C)C)NC(=O)[C@H](CCCNC(=N)N)NC(=O)[C@H](Cc2c[nH]cn2)NC(=O)[C@@H](NC(=O)[C@@H](N)C(C)C)[C@@H](C)O)C(=O)N[C@H](C(=O)N[C@H](C(=O)N[C@@H](CCCCN)C(=O)N[C@@H](CC(N)=O)C(=O)N[C@@H](CC(N)=O)C(=O)N[C@@H](Cc2ccccc2)C(=O)N[C@H](C(=O)N2CCC[C@H]2C(=O)N[C@H](C(=O)N[C@@H](CC(N)=O)C(=O)N[C@H](C(=O)NCC(=O)N[C@@H](CO)C(=O)N[C@@H](CCCCN)C(=O)N[C@@H](C)C(=O)N[C@@H](Cc2ccccc2)C(N)=O)C(C)C)[C@@H](C)O)C(C)C)C(C)C)C(C)C)nn1)C(=O)N[C@@H](Cc1ccc(O)cc1)C(=O)N[C@@H](CC(C)C)C(=O)N[C@@H](C)C(=O)N[C@@H](C)C(=O)N[C@H](C(=O)N[C@@H](CC(C)C)C(=O)NCC(=O)N[C@@H](CCCCN)C(=O)N[C@@H](CCCNC(=N)N)C(=O)N[C@@H](Cc1ccc(O)cc1)C(=O)N[C@@H](CCCCN)C(=O)N[C@@H](CCC(N)=O)C(=O)N[C@@H](CCCNC(=N)N)C(=O)N[C@H](C(=O)N[C@@H](CCCCN)C(=O)N[C@@H](CC(N)=O)C(=O)N[C@@H](CCCCN)C(N)=O)C(C)C)C(C)C)C(C)C  Kb (VIPR2 (Homo sapiens, UniProt P41587); cAMP accumulation, antagonist; added: PACAP-27): 0.155 µM
CNCc1ccc(-c2cc(Cl)cc(Cl)c2)o1  Ki (DRD3 (Homo sapiens, UniProt P35462); binding): 0.4 µM
CC(C)[C@H]1NC(=O)C[C@H]2/C=C/CCSSC[C@@H](NC1=O)C(=O)N[C@H](Cc1cccc3ccccc13)C(=O)NCC(=O)O2  inhibition (Aurora kinase A (AURKA, Homo sapiens, UniProt O14965); enzyme activity, inhibitor; 10 µM): -13.1%
CCCCCn1cc(C(=O)c2cccc3ccccc23)c2ccccc21  EC50 (CNR1 (Homo sapiens, UniProt P21554); Gαi1 activation, agonist, BRET): 0.0186 µM
COc1ccccc1C(C[N+](=O)[O-])c1c(-c2ccccc2)[nH]c2ccccc12 (stereo not shown)  EC50 (CNR1 (Homo sapiens, UniProt P21554, V249A); G protein activation, agonist, BRET): 0.59 µM
CCC[C@H](C(=O)c1ccccc1)N1CCCC1  Ki (SLC6A4 (Homo sapiens, UniProt P31645, Y95F); transporter uptake, inhibitor, radiometric): 318 µM
CCCCCc1cc(OC)c2c(c1)OC(C)(C)c1cc(O)c(C)cc1-2  IC50 (Si; enzyme activity, inhibitor, absorbance): 350 µM
CC(=O)NC1C(OC2C(O)C(CO)OC(OC3C(O)C(CO)OC(OC4C(O)C(O)OC(CO)C4O)C3NC(C)=O)C2OC2OC(C)C(O)C(O)C2O)OC(CO)C(O)C1O (stereo not shown)  Kd (slo (Streptococcus pyogenes, UniProt P0C0I3); binding): 0.105 µM
C[C@@H](Cc1ccsc1)NC(=O)NC[C@H](Cc1ccc(O)cc1)N(C)C  Ki (HCRTR1 (Homo sapiens, UniProt O43613)): > 50 µM
CCCCCc1cc(OCC=C(C)C)c2c(c1)OC(C)(C)C1=C2[C@@H](O)[C@@](C)(O)CC1  IC50 (Si; enzyme activity, inhibitor, absorbance): 720 µM
CCN(CC)C(=O)c1ccc(C(c2cccc(O)c2)N2CC(C)N(Cc3ccccc3)CC2C)cc1 (stereo not shown)  Ki (OPRD1 (Homo sapiens, UniProt P41143, I304A)): 0.00057 ± 0.00019 µM
O=C1NC2(CC2)COc2ncc(F)cc2[C@H]2COCCN2c2ccn3ncc1c3n2  organ-to-brain weight ratio (Sprague-Dawley rat, male, testes; oral, 5 mg/kg/day, 4 weeks dosing, end of recovery): 151 ± 13.6%
CC[C@H](C)[C@H](NC(=O)[C@H](CO)NC(=O)[C@H](CC(N)=O)NC(=O)[C@H](CC(C)C)NC(=O)[C@H](Cc1ccc(O)cc1)NC(=O)[C@H](CCCCN)NC(=O)[C@H](CCCCN)NC(=O)[C@@H](NC(=O)[C@H](C)NC(=O)[C@H](CCSC)NC(=O)[C@H](CCC(N)=O)NC(=O)[C@H](CCCCN)NC(=O)[C@H](CCCN=C(N)N)NC(=O)[C@H](CC(C)C)NC(=O)[C@H](CCCN=C(N)N)NC(=O)[C@@H](NC(=O)[C@H](Cc1ccc(O)cc1)NC(=O)[C@H](CC(N)=O)NC(=O)[C@H](CC(=O)O)NC(=O)[C@@H](NC(=O)[C@H](Cc1ccccc1)NC(=O)[C@@H](NC(=O)[C@H](C)NC(=O)[C@H](CC(=O)O)NC(=O)[C@H](CO)NC(=O)[C@@H](N)Cc1c[nH]cn1)C(C)C)[C@@H](C)O)[C@@H](C)O)C(C)C)C(=O)N[C@@H](CC(C)C)C(=O)N[C@@H](CC(N)=O)C(N)=O  EC50 (ADCYAP1R1 (Homo sapiens, UniProt P41586, del89-109); G11 dissociation, agonist, BRET2 TRUPATH; COS-7; 37 °C): 0.479 µM
CCN(CC)C(=O)[C@@H]1C=C2c3cccc4c3c(cn4C(=O)c3ccco3)C[C@H]2N(C)C1  Ki (ADRB1 (Homo sapiens, UniProt P08588); ligand displacement, radioligand): > 10 µM

Some of these lines once more:
COc1ccccc1C(C[N+](=O)[O-])c1c(-c2ccccc2)[nH]c2ccccc12 (stereo not shown)  EC50 (CNR1 (Homo sapiens, UniProt P21554, V249A); G protein activation, agonist, BRET): 0.59 µM
CC(=O)NC1C(OC2C(O)C(CO)OC(OC3C(O)C(CO)OC(OC4C(O)C(O)OC(CO)C4O)C3NC(C)=O)C2OC2OC(C)C(O)C(O)C2O)OC(CO)C(O)C1O (stereo not shown)  Kd (slo (Streptococcus pyogenes, UniProt P0C0I3); binding): 0.105 µM
O=[N+]([O-])CC(c1ccco1)c1c(-c2ccccc2)[nH]c2ccccc12 (stereo not shown)  EC50 (CNR1 (Homo sapiens, UniProt P21554, F191A); G protein activation, agonist, BRET): > 1000 µM
